Experimental data pooled from the literature.
Lines come from different studies, so protocols differ. Several values in a cell are separate wells, animals, samples, runs or records. ± marks the error that the study gave.
MT-CYB/UQCRFS1: MT-CYB/UQCRFS1 (Homo sapiens, UniProt P00156+P47985)
Sequence of UniProt P05164 (whole entry, looked up): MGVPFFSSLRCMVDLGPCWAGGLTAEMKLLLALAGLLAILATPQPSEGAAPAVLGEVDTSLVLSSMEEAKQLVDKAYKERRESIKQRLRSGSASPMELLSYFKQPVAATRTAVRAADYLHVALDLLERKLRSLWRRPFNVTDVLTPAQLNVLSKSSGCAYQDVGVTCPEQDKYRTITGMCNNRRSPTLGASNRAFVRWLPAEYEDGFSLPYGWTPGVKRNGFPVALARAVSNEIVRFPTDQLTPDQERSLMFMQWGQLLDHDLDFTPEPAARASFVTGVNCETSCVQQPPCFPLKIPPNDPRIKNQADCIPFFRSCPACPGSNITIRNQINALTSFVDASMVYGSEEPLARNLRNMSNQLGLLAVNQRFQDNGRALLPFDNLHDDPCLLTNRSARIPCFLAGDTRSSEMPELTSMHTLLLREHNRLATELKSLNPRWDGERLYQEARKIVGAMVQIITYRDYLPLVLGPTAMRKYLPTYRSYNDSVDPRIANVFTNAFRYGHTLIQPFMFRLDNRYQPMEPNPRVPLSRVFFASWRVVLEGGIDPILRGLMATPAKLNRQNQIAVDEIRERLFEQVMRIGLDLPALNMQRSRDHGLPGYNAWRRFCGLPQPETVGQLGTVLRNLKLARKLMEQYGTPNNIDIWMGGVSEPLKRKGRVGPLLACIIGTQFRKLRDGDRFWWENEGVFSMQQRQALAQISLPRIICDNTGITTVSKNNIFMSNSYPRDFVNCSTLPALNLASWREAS
Sequence of UniProt Q16774 (whole entry, unmodified, looked up): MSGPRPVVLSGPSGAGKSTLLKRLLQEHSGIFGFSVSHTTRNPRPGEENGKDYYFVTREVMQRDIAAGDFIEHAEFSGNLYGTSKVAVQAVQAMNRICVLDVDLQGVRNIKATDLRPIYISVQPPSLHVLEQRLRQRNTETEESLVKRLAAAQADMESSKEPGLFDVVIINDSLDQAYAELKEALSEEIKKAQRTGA
Sequence of UniProt P00156 (whole entry, looked up): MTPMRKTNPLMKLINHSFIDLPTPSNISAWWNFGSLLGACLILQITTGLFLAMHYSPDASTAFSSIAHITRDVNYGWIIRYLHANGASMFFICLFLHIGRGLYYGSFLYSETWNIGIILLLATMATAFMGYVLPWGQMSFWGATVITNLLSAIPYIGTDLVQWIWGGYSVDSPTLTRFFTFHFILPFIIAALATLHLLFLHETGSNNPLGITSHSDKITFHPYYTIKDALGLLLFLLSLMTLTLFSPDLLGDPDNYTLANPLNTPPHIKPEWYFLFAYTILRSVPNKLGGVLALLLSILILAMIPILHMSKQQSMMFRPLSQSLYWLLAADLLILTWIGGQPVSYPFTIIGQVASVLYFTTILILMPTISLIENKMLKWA
Sequence of UniProt P47985 (whole entry, looked up): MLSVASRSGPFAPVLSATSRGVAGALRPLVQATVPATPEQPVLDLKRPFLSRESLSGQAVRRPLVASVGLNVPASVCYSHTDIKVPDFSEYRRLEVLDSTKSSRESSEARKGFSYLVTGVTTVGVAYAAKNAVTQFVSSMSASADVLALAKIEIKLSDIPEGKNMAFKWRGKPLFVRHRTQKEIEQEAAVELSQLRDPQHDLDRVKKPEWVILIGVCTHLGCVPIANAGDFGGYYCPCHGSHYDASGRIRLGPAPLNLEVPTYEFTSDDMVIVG
Sequence of UniProt P09874 (whole entry, looked up): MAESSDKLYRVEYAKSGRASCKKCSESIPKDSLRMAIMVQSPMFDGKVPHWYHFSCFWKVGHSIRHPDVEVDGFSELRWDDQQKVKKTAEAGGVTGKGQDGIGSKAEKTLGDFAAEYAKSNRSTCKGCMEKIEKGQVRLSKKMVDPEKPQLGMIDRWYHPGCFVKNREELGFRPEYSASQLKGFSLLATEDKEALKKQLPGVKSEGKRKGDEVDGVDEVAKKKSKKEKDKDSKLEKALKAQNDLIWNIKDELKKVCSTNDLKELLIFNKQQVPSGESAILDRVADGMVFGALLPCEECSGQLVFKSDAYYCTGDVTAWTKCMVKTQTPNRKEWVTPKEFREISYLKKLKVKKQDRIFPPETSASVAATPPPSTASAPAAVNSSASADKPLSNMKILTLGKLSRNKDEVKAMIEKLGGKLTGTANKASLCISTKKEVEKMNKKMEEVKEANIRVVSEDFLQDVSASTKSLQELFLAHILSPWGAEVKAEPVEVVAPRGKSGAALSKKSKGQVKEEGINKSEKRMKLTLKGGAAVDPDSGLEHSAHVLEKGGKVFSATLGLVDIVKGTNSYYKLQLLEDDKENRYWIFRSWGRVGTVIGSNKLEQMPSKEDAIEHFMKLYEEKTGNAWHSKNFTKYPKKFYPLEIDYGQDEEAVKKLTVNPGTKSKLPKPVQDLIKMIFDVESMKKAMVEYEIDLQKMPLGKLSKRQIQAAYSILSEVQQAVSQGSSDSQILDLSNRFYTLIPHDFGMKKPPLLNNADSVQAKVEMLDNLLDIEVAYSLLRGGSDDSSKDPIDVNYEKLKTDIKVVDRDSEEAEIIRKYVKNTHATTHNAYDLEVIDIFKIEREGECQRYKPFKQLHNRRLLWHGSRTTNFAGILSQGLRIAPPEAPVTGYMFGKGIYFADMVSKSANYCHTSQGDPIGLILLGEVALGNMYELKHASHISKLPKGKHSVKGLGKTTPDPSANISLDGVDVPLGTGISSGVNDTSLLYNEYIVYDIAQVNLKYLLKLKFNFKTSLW
Sequence of UniProt P11388 (whole entry, looked up): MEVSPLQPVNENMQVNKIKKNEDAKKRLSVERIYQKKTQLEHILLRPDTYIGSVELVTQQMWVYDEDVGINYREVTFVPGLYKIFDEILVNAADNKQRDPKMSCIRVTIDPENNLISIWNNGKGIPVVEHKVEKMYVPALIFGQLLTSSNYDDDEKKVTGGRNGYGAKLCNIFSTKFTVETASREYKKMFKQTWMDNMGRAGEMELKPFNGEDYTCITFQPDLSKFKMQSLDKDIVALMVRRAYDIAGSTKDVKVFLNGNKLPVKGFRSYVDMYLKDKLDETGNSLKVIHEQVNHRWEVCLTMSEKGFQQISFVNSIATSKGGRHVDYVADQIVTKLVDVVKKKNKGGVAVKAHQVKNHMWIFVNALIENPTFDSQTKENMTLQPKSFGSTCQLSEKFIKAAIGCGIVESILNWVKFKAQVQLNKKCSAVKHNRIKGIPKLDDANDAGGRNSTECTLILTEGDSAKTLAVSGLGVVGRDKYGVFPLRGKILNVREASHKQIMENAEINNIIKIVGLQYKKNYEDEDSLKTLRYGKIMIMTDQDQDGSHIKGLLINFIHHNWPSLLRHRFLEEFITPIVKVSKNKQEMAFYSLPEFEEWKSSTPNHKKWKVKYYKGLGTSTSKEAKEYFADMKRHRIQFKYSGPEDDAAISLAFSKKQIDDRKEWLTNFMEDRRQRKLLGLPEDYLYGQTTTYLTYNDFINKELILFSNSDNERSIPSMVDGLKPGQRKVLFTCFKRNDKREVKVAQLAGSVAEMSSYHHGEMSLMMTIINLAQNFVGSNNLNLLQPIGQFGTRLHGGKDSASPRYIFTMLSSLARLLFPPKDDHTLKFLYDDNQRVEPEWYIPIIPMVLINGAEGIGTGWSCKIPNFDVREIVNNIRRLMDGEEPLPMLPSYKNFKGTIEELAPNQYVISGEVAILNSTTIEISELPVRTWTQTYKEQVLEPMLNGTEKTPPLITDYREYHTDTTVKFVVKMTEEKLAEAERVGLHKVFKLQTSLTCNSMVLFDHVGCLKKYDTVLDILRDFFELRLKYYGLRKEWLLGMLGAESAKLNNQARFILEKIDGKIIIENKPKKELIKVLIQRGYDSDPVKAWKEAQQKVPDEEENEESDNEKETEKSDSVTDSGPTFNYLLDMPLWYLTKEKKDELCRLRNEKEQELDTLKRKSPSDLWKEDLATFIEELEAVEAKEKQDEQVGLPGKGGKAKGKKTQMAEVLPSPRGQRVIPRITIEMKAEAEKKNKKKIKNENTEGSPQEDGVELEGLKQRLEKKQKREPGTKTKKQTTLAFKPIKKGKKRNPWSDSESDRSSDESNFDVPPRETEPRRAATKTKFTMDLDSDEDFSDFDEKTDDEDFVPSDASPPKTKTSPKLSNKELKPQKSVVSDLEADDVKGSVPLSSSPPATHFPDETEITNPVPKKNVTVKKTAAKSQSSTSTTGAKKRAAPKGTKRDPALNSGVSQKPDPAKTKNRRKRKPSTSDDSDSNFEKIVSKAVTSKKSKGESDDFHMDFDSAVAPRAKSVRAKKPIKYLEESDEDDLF
Sequence of UniProt Q8K3Y3 (whole entry, looked up): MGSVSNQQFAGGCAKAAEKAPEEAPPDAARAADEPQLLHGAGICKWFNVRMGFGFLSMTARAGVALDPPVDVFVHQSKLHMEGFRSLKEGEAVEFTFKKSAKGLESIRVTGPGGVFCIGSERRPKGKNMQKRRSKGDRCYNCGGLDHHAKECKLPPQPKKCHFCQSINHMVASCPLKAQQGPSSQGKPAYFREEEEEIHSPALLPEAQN
Sequence of UniProt P25105 (whole entry, looked up): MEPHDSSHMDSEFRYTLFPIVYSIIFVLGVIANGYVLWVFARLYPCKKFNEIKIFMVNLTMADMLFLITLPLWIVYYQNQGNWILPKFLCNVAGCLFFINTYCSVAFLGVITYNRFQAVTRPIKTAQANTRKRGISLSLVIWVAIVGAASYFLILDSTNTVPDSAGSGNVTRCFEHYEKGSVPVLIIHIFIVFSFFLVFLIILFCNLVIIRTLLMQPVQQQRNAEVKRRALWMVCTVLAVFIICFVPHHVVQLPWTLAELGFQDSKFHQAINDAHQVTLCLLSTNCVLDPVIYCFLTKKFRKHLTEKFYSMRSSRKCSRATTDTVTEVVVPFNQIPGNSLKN
Sequence of UniProt P09391 (whole entry, looked up): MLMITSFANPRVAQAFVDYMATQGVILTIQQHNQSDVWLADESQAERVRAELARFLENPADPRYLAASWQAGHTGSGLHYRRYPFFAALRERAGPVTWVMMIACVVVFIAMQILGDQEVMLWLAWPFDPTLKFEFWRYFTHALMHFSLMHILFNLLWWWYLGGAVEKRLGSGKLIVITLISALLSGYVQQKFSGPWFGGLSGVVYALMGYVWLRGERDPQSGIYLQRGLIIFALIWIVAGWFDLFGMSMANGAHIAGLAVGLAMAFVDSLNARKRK

| Structure (SMILES) | target | test | system | conditions | scale | quantity | result |
| --- | --- | --- | --- | --- | --- | --- | --- |
| CC1=C(/C=C/C(C)=C/C=C/C(C)=C/C=O)C(C)(C)CCC1 | Rhodopsin (RHO, Bos taurus, UniProt P02699, F273W) | retinal release, Trp FRET | lipid bicelles | 28 °C, F273W mutant | baseline: wild-type rhodopsin | relative koff | 2.3 ± 0.05 |
| CC1CCCN(C(=O)c2cc3ncccn3n2)C1 (stereo not drawn) | YTHDF2 (Homo sapiens, UniProt Q9Y5A9) | binding, affinity selection mass spectrometry |  |  | baseline: other proteins in batch | log fold enrichment | -0.105 |
| O=c1nc(SCc2cc(F)cc(C(F)(F)F)c2)nc(SCc2ccc3nc(Cl)ccc3c2)[nH]1 | TOP2A (Homo sapiens, UniProt P11388) | ATPase activity |  | 7.8 µM, with: ATP 0.025 mM |  | ATP hydrolysis rate | 0.197 µM/min and 0.28 µM/min |
| CN(C)C(=O)C(CCN1CCC(O)(c2ccc(Cl)cc2)CC1)(c1ccccc1)c1ccccc1 | Calcium-activated potassium channel subunit alpha-1, with LRRC26 γ1 subunit (KCNMA1, Homo sapiens, UniProt Q12791) | BK current, inhibitor, inside-out patch clamp | excised membrane patch | 10 µM, γ1 coexpressed, individual fits, with: nominally 0 Ca2+ cytosolic | baseline: without loperamide | normalized Gmax | 0.24 ± 0.04 |
| NC(=O)NOCCCCCCCCCCCCCC[P+](c1ccccc1)(c1ccccc1)c1ccccc1.O=C([O-])C(F)(F)F | MT-CYB/UQCRFS1 | complex III-dependent respiration, Seahorse XF96 | HCT-116 | 10 µM, 24 h | baseline: control | oxygen consumption rate | 13.9 ± 5.27% |
| CC(NC(=O)CCCc1ccc2ccc3cccc4ccc1c2c34)C(=O)NO (stereo not drawn) | HDAC8 (Homo sapiens, UniProt Q9BY41) | ITC |  | concentration not given |  | binding stoichiometry | 0.9 ± 0.1 |
| O=CNc1ccc(Br)cc1C=O | Dehaloperoxidase B, ferric (Amphitrite ornata, UniProt Q9NAV7) | product, HPLC |  | with: 5-bromoindole 500 µM, H2O2 250 µM |  | share of total products | 0.6% |
| CC[C@@H]1[C@H](F)C(=O)N[C@@H]1COc1nccc2cc(C(N)=O)c(OC)cc12 | STE20-related kinase adapter protein beta (Homo sapiens, UniProt Q9C0K7) | ATP probe binding, KiNativ profiling, refers to: Lys1 probe site | THP-1 cell lysate | 0.2 mM |  | inhibition | 11.5% |
| NCCS(=O)(=O)O | SLC6A6 (Homo sapiens, UniProt P31641, S402A) | binding, microscale thermophoresis |  | 15.6 µM, room temperature, with: 50 nM labelled protein | higher = more binding | normalised MST signal | -0.027 |
| OC[C@H]1OC(O)[C@H](O)[C@@H](O)[C@@H]1O (stereo partly drawn) | Hexokinase-3 (HK3, Homo sapiens, UniProt P52790, N221A) | enzyme activity, coupled G6PDH |  |  |  | maximal inhibition | ~50% |
| Nc1nc2c(ncn2[C@@H]2O[C@@H]3COP(=O)(O)O[C@H]4[C@@H](O)[C@H](n5cnc6c(=O)[nH]c(N)nc65)O[C@@H]4COP(=O)(O)O[C@H]3[C@H]2O)c(=O)[nH]1 | Cell cycle histidine kinase CckA, CA domain (Caulobacter vibrioides, UniProt Q9X688) | isothermal titration calorimetry | Caulobacter crescentus | concentration not given, 12 °C, with: AMPPNP 5 mM |  | binding enthalpy (ΔH) | 2 kcal/mol |
| Cc1cccc(N(O)N=Nc2ccc(S(=O)(=O)Nc3onc(C)c3C)cc2)c1 | α-glucosidase, rat intestine | enzyme activity |  | 120 µg/mL, with: 4-nitrophenyl α-D-glucopyranoside |  | inhibition | 22.5 ± 1.54% |
| c1coc(-c2n[nH]cc2-c2ccnc3ccccc23)c1 | TGFBR1 (Homo sapiens, UniProt P36897) |  |  |  | baseline: IC50 on target over Yck2 | selectivity ratio | 1 |
| CCO[C@@H](Cc1ccc(OCCn2c(C)ccc2-c2ccc(SC)cc2)cc1)C(=O)O | Peroxisome proliferator-activated receptor alpha (Rattus norvegicus, UniProt P37230) | receptor activation, agonist |  | species rat | baseline: internal control agonist | Emax | 110% |
| Nc1nc2c(ncn2[C@@H]2O[C@H](COP(=O)(O)O)[C@@H](O)[C@H]2O)c(=O)[nH]1 | GUK1 (Homo sapiens, UniProt Q16774, T83A) | enzyme activity, NADH-coupled |  | 7.812 µM |  | reaction rate | 3.94 s⁻¹ and 3.24 s⁻¹ and 2.78 s⁻¹ |
| COc1oc(=O)c2cc(N)ccc2c1Cl | glpG (Escherichia coli, UniProt P09391) | substrate cleavage, inhibitor | NR698 |  |  | IC50 | inactive |
| C[C@H](CCC(C)(C)O)[C@H]1CC[C@H]2[C@@H]3CC=C4C[C@@](C)(O)CC[C@]4(C)[C@H]3CC[C@]12C | Glutamate NMDA receptor; GRIN1/GRIN2B (GRIN1/GRIN2B, Homo sapiens, UniProt Q05586+Q13224, D552A) | positive allosteric modulator, two-electrode voltage clamp | Xenopus oocytes expressing GluN1-D552A | 10 µM, 0.02% cremophor, with: 100 µM glutamate and glycine | baseline: without compound | current response | 167 ± 7.8% |
| COc1cc(-c2cncc3c2CN(C)Cc2cc(N4CCNCC4)ccc2-3)cc(OC)c1OC | Cyclin-dependent kinase 17, with cyclin Y (CDK17, Homo sapiens, UniProt Q00537) | kinase activity |  | 1 µM, human enzyme, with: ATP 10 µM | baseline: DMSO control | remaining activity | 108% |
| COc1cc(NC(=O)c2ccccn2)ccc1/N=N/c1ccccc1Cl | GRM8 (Homo sapiens, UniProt O00222) | positive allosteric modulator, IP accumulation | HEK293 | 30 µM, in the dark, with: low-dose orthosteric agonist |  | activation | 92.5% |
| CN1CCN(c2cc(-c3ccncc3)c(-c3ccc4ccccc4c3)nn2)CC1 | PTAFR (Homo sapiens, UniProt P25105) | agonist, FLIPR |  | 12.5 µM |  | activation | -1.7% |
| O=C(COP(=O)(O)O)[C@@H](O)[C@H](O)[C@H](O)COP(=O)(O)O | PARP1 (Homo sapiens, UniProt P09874) | thermal proteome profiling | HepG2 cell lysate | concentration not given, 57 over 37 °C | baseline: compound over control | thermal stability ratio | 0.6 and 0.556 and 0.444 |
| NC(=O)NO | MT-CYB/UQCRFS1 | complex III-dependent respiration, Seahorse XF96 | HCT-116 | 150 µM, 24 h | baseline: control | oxygen consumption rate | 92.2 ± 10.4% |
| CCCCC1(CCCC)CN(c2ccccc2)c2cc(SC)c(OCC(=O)N[C@@H](C(=O)NCC(=O)O)c3ccccc3)cc2S(=O)(=O)C1 | SLC10A2 (Homo sapiens, UniProt Q12908) | inhibitor, UPLC-MS | differentiated Caco-2 on transwells | 1 µM, 16 h, compound pre-incubation, with: apical bile acids 100 µM |  | intracellular bile acid accumulation | decreased |
| NC(=O)NOCCCCCCCCCCCCCCCCCCCC[P+](c1ccccc1)(c1ccccc1)c1ccccc1.O=C([O-])C(F)(F)F | MT-CYB/UQCRFS1 | complex III-dependent respiration, Seahorse XF96 | HCT-116 | 20 µM, 24 h | baseline: control | oxygen consumption rate | 12.8% |
| CC[C@H](C)[C@H](NC(=O)[C@@H]1CCCN1C(=O)[C@H](CC(C)C)NC(=O)[C@H](Cc1ccccc1)NC(=O)[C@H](CCC(=O)O)NC(=O)CNC(=O)[C@@H](NC(=O)[C@H](CCC(=O)O)NC(=O)[C@H](CCC(=O)O)NC(=O)[C@H](CC(=O)O)NC(=O)[C@H](CC(C)C)NC(=O)[C@H](CCC(N)=O)NC(=O)[C@H](CC(C)C)NC(=O)[C@H](CCC(N)=O)NC(=O)[C@H](C)NC(=O)[C@H](Cc1ccccc1)NC(C)=O)[C@@H](C)O)C(=O)N[C@@H](CCC(N)=O)C(=O)N1CCC[C@H]1C(=O)N[C@@H](C)C(=O)N[C@@H](CCC(N)=O)C(N)=O | Kelch-like ECH-associated protein 1, Kelch domain (KEAP1, Homo sapiens, UniProt Q14145) | binding, ITC |  | pH 7, 298.15 K |  | TΔS | -7.18 kcal/mol |
| NC(=O)NOCCCCCCCCCCCCCCCC[P+](c1ccccc1)(c1ccccc1)c1ccccc1.O=C([O-])C(F)(F)F | MT-CYB/UQCRFS1 | complex III-dependent respiration, Seahorse XF96 | HCT-116 | 0.1 µM, 24 h | baseline: control | oxygen consumption rate | 89.4% |
| CC(C)CC(=O)N[C@H](C(=O)N[C@H](C(=O)N[C@@H](CC(C)C)[C@@H](O)CC(=O)N[C@@H](C)C(=O)N[C@@H](CC(C)C)[C@@H](O)CC(N)=O)C(C)C)C(C)C | Cathepsin D (CTSD, Homo sapiens, UniProt P07339) | surface plasmon resonance |  |  |  | association rate constant | 2220 M⁻¹ s⁻¹ |
| Cc1cc(NS(=O)(=O)c2ccc(N=NN(O)c3ccccc3)cc2)no1 | α-glucosidase, rat intestine | enzyme activity |  | 180 µg/mL, with: 4-nitrophenyl α-D-glucopyranoside |  | inhibition | 42.5 ± 0.59% |
| NC1=NN(c2ccc(Oc3ccccc3)c(S(=O)(=O)O)c2)C(=O)C1 | Protein lin-28 homolog A (Mus musculus, UniProt Q8K3Y3) |  |  |  |  | Hill slope | -0.9 |
| CC(C)OCCn1c(=S)[nH]c(=O)c2[nH]ccc21 | Myeloperoxidase (MPO, Homo sapiens, UniProt P05164) | inhibitor, cholesteryl ester hydroperoxide |  | 0.3704 µM | baseline: control | LDL lipid peroxidation | 41.6% and 25.5% and 107% and 55.6% |

For quick reference, copied from above:
| Structure (SMILES) | target | test | system | conditions | scale | quantity | result |
| --- | --- | --- | --- | --- | --- | --- | --- |
| NC(=O)NOCCCCCCCCCCCCCC[P+](c1ccccc1)(c1ccccc1)c1ccccc1.O=C([O-])C(F)(F)F | MT-CYB/UQCRFS1 | complex III-dependent respiration, Seahorse XF96 | HCT-116 | 10 µM, 24 h | baseline: control | oxygen consumption rate | 13.9 ± 5.27% |
| CC(NC(=O)CCCc1ccc2ccc3cccc4ccc1c2c34)C(=O)NO (stereo not drawn) | HDAC8 (Homo sapiens, UniProt Q9BY41) | ITC |  | concentration not given |  | binding stoichiometry | 0.9 ± 0.1 |
| O=CNc1ccc(Br)cc1C=O | Dehaloperoxidase B, ferric (Amphitrite ornata, UniProt Q9NAV7) | product, HPLC |  | with: 5-bromoindole 500 µM, H2O2 250 µM |  | share of total products | 0.6% |
